Measured values collected from several papers.
A part holds a random share of what one study measured.

Study 1
Target: Interferon regulatory factor 5, full length, phosphomimetic (IRF5, Homo sapiens, UniProt Q13568-2, residues 1-514, K96S/S451D/S453D/S456D/S462D)
Method: protein-binding microarray
Molecule type: double-stranded DNA, one strand shown
Matrix: in vitro
Tested at: 250 nM
Setting: 60-bp whole probe
With: salmon DNA 0.4 mg/ml
Baseline: random background probes
Reading: higher = stronger binding
Constant ends, left off below: GCCTAGCAC … GTCTTGATTCGCTTGACGCTGCTG
Strand	log fluorescence
GACGGTATCGACTTTCGGTACGTGCTA	9.42 z-score
TAAGATTTCGGGTTTCGATTAGTGCTA	8.03 z-score
CCTTCCATCACTTTCCACTTGTGCTAG	1.76 z-score
TCATTTTTCCCCTGCACACTGTGCTAG	0.958 z-score
TTAGGTTCCGGTTTTGGTTAGTGCTAG	3.07 z-score

Study 2
Target: Prothrombin, mature alpha-thrombin (F2, Homo sapiens, UniProt P00734)
Method: aptamer microarray, sandwich
Molecule type: DNA with 2'F-ANA
Matrix: in vitro
Tested at: 200 nM
Setting: whole 15-mer aptamer, many near background
With: Cy3 exosite-II aptamer, 400 nM
Reading: higher = stronger binding
Strand: GGTTGGTGTGGTTGG
Modification	mean fluorescence intensity [a.u.]
2'F-ANA at 1 2 5 8 9 10 11 13 14 15	43.8
2'F-ANA at 3 4 6 7 8 9 10 11 15	215
2'F-ANA at 2 3 4 6 7 10 11 13 14 15	130
2'F-ANA at 2 3 6 7 8 12 15	1010
2'F-ANA at 1 4 5 9 11 12 13 14	53
2'F-ANA at 9 11 12 13 14	215
2'F-ANA at 2 3 5 8 10 11 13 14	49.3
2'F-ANA at 1 2 3 4 5 6 14	48.6
2'F-ANA at 1 2 4 5 8 9 10 11 12 13 15	140

Study 3
Target: Sal-like protein 4, full length isoform B (SALL4, Homo sapiens, UniProt Q9UJQ4-2, residues 1-616)
Method: universal PBM
Molecule type: double-stranded DNA, one strand shown
Matrix: in vitro
Tested at: not given
Setting: 8-mer, flanks averaged, mean of replicates
Reading: higher = stronger binding
Residues (chain): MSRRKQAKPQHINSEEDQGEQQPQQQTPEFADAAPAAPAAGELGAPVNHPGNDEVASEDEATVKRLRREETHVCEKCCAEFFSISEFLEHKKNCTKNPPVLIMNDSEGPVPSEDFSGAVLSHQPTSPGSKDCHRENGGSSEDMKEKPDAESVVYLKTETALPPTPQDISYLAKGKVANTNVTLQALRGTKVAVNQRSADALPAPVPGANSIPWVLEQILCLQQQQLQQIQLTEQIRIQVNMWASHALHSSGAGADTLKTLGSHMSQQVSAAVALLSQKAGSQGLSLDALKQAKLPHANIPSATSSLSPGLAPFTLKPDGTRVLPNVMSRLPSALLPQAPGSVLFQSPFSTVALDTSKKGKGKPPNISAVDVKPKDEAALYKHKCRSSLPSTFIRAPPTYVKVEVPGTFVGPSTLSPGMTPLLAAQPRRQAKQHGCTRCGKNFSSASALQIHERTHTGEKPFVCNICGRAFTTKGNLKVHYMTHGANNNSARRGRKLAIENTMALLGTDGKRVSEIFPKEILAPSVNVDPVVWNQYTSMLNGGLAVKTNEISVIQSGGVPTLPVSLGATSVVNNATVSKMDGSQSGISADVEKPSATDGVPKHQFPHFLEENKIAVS
Strand	E-score
AGAGCACC	-0.326
ATGAGGTG	-0.0291
CCTCGGTC	-0.339
CAGCCGGA	-0.248
CCACGAAC	0.0236
GCATAGCA	0.0902
ACCCAGGA	-0.243

Single results of other studies
Molecule	target	test	system	setting	scale	quantity	value
PhoQ, residues 284 288 289 292 302 303 WVSSAF	PhoP, residues 12 14 15 18 19 GHCSL (Escherichia coli, UniProt P23836)	Sort-seq, measured: YFP reporter	E. coli	PhoQ-PhoP variant library, with: 10 µM Mg2+	baseline: high Mg2+ state, higher = stronger signaling	fold induction	10.9
